Measurements of several laboratories.
Parts stem from different laboratories: compare values within a part only.
Chain of UniProt Q6XUX3 (whole entry, looked up): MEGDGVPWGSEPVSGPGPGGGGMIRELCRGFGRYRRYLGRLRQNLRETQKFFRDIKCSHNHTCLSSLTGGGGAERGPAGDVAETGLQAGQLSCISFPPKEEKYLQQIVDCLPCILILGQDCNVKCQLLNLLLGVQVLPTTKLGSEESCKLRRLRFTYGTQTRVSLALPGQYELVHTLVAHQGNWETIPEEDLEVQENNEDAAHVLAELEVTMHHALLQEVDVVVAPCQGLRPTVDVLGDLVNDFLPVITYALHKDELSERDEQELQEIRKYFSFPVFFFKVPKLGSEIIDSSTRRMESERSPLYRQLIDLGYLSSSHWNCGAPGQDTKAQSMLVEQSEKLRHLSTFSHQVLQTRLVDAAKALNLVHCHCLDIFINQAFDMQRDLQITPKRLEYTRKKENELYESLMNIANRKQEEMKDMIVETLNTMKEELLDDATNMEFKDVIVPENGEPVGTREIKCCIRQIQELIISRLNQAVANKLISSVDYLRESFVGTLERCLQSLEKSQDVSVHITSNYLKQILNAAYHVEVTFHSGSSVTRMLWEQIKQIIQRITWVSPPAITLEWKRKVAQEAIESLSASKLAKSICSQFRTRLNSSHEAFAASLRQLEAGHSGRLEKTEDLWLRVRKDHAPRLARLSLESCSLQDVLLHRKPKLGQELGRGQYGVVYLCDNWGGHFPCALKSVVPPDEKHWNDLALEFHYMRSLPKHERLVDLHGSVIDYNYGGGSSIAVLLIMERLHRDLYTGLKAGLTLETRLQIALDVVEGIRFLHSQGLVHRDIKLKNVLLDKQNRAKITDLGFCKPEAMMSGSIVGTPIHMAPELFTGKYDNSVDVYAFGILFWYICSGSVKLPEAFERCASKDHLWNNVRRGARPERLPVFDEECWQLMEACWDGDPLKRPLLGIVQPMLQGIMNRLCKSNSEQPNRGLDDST

Set 1
Cell line: mouse MPNST tumor cells
Method: high-content immunofluorescence imaging
Item: nuclear SOX9
Concentration: 10 µM
Time: 12 h
Notes: mean of 2 replicates
Reference: DMSO control
Direction: higher = more nuclear SOX9
Endpoint: nuclear SOX9 intensity
CN1CCN(C(c2ccccc2)c2ccc(Cl)cc2)CC1 (centres unmarked): 215 % of DMSO
O=C1c2ccccc2C(Cc2ccnc(F)c2)(Cc2ccnc(F)c2)c2ccccc21: 102 % of DMSO
O=C(O)CC1CC(c2ccccc2)=NO1 (centres unmarked): 96.9 % of DMSO
COC1=CC(=O)C[C@@H](C)[C@]12Oc1c(Cl)c(OC)cc(OC)c1C2=O: 107 % of DMSO

Set 2
Target: Serine/threonine-protein kinase PAK 5 (PAK5, Homo sapiens, UniProt Q9P286)
Chain of UniProt Q9P286 (whole entry, looked up): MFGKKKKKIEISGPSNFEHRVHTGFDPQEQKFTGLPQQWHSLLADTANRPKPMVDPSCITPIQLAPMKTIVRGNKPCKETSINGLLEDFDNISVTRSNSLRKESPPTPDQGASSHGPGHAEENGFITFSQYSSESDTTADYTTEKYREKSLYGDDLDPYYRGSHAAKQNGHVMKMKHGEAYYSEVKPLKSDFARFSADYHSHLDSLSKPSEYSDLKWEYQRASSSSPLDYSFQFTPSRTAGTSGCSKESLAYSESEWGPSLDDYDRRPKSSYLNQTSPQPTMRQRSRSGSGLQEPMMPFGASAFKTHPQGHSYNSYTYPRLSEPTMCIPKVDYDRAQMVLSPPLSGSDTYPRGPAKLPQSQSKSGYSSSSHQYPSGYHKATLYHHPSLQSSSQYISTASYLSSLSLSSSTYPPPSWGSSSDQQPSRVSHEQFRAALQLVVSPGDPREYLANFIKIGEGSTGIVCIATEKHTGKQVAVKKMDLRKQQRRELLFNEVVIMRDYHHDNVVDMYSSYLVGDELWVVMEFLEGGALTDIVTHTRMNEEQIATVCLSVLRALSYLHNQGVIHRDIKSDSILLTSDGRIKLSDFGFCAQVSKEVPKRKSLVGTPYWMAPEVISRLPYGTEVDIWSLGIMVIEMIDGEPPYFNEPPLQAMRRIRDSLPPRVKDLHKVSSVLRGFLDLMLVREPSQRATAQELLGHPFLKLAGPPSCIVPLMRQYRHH
Read-out: enzyme activity
Mode: inhibitor
Concentration: 0.5 µM
Reference: control
Endpoint: remaining activity
Nc1ccc2ncnc(NCCc3ccc(Oc4ccccc4)cc3)c2c1: 106%
CNC(=O)c1cc(Oc2ccc(NC(=O)Nc3ccc(Cl)c(C(F)(F)F)c3)cc2)ccn1: 95.9%
COc1cc2nccc(Oc3ccc(NC(=S)NC(=O)c4ccccc4C)cc3)c2cc1OC: 102%
COc1cc2ncnc(Nc3ccc(F)c(Cl)c3)c2cc1OCCCN1CCOCC1: 97.4%
O=C(CCCc1ccc(-c2ccccc2F)cc1)Nc1ccc(O)cc1: 90.3%
Cn1sc(=O)n(Cc2ccccc2)c1=O: 81.1%
Cc1nc(-c2ccccc2)c(-c2ccncc2)o1: 96.1%
COc1ccc(CNC(=O)Nc2ncc([N+](=O)[O-])s2)cc1: 95.4%
Cn1c2ccccc2c2c3c(c4c5ccccc5n(CCC#N)c4c21)CNC3=O: 37.1%
Cc1ccc(NC(=O)c2ccc(CN3CCN(C)CC3)cc2)cc1Nc1nc(-c2cccnc2)cs1: 92%
O=C1NC(=O)C(c2cn(CCCO)c3ncccc23)=C1c1cnccn1: 88.2%
CC(C)[C@H](CO)Nc1nc(Nc2cc(N)cc(Cl)c2)c2ncn(C(C)C)c2n1: 44.3%
COc1cc2ncnc(Nc3ccc(Oc4ccccc4)cc3)c2cc1OC: 103%
Nc1[nH]nc2nc3ccccc3nc12: 98.4%
C#Cc1cccc(Nc2ncnc3cc(OCCOC)c(OCCOC)cc23)c1: 97.3%

Set 3
Species: mouse
Matrix: microsomes or S9
Concentration: 2 µM
Time: 0.5 h
Endpoint: remaining compound
CCOC(=O)N1CCN(c2ncc3c(n2)CC(c2cc(OC)c(OC)c(OC)c2)CC3=O)CC1 (centres unmarked): 35.6%
COc1ccc([C@@H](C)C(=O)c2ccc(O)cc2O)cc1: 31.1%
CN(C)c1cncc(-c2cccc(-n3cccn3)c2)n1: 1.6%
CNc1nc(NC2CCOC2c2ccc(F)c(F)c2)ncc1Br (centres unmarked): 1.87%

Set 4
Target: Calcium/calmodulin-dependent protein kinase type II subunit alpha (CAMK2A, Homo sapiens, UniProt Q9UQM7)
Chain of UniProt Q9UQM7 (whole entry, looked up): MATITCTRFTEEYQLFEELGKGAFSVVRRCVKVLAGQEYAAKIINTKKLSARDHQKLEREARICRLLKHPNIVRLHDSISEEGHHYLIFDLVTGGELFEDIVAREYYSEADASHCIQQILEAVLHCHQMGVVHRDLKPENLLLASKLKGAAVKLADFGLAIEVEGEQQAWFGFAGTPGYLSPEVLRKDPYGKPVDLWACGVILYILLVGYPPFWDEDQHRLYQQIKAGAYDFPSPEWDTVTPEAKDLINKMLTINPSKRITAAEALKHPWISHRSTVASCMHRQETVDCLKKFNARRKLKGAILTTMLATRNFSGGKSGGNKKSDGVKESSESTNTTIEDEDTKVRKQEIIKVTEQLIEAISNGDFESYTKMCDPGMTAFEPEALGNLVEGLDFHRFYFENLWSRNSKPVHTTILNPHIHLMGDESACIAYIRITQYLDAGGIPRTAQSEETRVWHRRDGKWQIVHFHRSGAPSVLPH
Read-out: enzyme activity
Mode: inhibitor
Concentration: 10 µM
Endpoint: inhibition
C[C@H](CC[C@@H](O[C@@H]1O[C@H](CO[C@@H]2O[C@H](CO)[C@@H](O)[C@H](O)[C@H]2O)[C@@H](O)[C@H](O)[C@H]1O[C@@H]1O[C@H](CO)[C@@H](O)[C@H](O)[C@H]1O)C(C)(C)O)[C@H]1CC[C@@]2(C)[C@@H]3CC=C4[C@@H](CC[C@H](O[C@@H]5O[C@H](CO)[C@@H](O)[C@H](O)[C@H]5O)C4(C)C)[C@]3(C)[C@H](O)C[C@]12C: -14%
CCCCCCCC/C=C\CCCCCCCCCCCCCC(=O)O: 11%
C[C@@H]1O[C@@H](O[C@H]2[C@H](Oc3cc(O)c4c(=O)cc(-c5ccc(O)cc5)oc4c3)O[C@H](CO[C@@H]3O[C@H](CO)[C@@H](O)[C@H](O)[C@H]3O)[C@@H](O)[C@@H]2O)[C@H](O)[C@H](O)[C@H]1O: -24%

Set 5
Read-out: AlphaScreen signal
Method: AlphaScreen counter screen
Matrix: His6 peptide without bromodomain
Concentration: 50 µM
Notes: assay interference check
Endpoint: inhibition
O=c1[nH]c(CN2CCC(O)C2)nc2c1SC1C=CC(c3ccc(O)cc3)=CC21 (centres unmarked): 25.6%
C[C@@H](Oc1ccc2[nH]nc(/C=C/c3cnn(CCO)c3)c2c1)c1c(Cl)cncc1Cl: 28.6%
CCOC(=O)C1=C(C)NN=C(Nc2cccc(C)c2C)S1: 29.6%

Other studies, line by line
COc1ccc(-c2c(Nc3ccccn3)[nH]c3c(C4=CCCCC4)c(-c4ccccc4)nn3c2=O)cc1
AUC(all) (LC-MS/MS non-compartmental; human, plasma; oral, 200 mg twice daily, cycle 1): 234 µg·h/mL

CCCCN(CCCC)C(=O)CN1C[C@@H](c2cc(OC)c3c(c2)OCO3)[C@H](C(=O)O)[C@H]1CC(C)(C)CCC
remaining binding (Dual serine/threonine and tyrosine protein kinase (DSTYK, Homo sapiens, UniProt Q6XUX3); cell-free assay, competition with immobilised ligand; 1 µM): 99.7%

CC(C)n1cnc(-c2ccc(F)cc2)c1-c1ncc(C(=O)Nc2ccc(N3CCN(C)CC3)cc2)[nH]1
patients discontinuing for adverse event (item: liver function abnormal; patients with idiopathic pulmonary fibrosis; 60 mg once daily, trial): 5.6%

Excerpt of the above (set 2):
COc1cc2ncnc(Nc3ccc(F)c(Cl)c3)c2cc1OCCCN1CCOCC1: 97.4%
O=C(CCCc1ccc(-c2ccccc2F)cc1)Nc1ccc(O)cc1: 90.3%
Cn1sc(=O)n(Cc2ccccc2)c1=O: 81.1%
Cc1nc(-c2ccccc2)c(-c2ccncc2)o1: 96.1%
COc1ccc(CNC(=O)Nc2ncc([N+](=O)[O-])s2)cc1: 95.4%
